Measurements pooled from the literature.
Every numbered part comes from another study and shows a few of its results, in no order. Values joined by “and” are separate records of one study, mostly repeats; a detail may differ.
Sequence of UniProt P15735 (whole entry, looked up): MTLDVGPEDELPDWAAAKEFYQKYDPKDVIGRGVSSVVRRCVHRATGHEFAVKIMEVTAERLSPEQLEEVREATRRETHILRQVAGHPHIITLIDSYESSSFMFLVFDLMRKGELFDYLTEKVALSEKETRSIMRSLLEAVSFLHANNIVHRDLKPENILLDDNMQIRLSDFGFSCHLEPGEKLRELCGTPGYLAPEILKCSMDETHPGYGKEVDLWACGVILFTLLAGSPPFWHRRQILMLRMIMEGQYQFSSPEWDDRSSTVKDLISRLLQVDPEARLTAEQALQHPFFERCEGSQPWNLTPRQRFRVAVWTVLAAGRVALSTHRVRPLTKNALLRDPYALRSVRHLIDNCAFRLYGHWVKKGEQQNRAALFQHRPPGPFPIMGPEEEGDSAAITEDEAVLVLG
Sequence of UniProt P53350 (whole entry, looked up): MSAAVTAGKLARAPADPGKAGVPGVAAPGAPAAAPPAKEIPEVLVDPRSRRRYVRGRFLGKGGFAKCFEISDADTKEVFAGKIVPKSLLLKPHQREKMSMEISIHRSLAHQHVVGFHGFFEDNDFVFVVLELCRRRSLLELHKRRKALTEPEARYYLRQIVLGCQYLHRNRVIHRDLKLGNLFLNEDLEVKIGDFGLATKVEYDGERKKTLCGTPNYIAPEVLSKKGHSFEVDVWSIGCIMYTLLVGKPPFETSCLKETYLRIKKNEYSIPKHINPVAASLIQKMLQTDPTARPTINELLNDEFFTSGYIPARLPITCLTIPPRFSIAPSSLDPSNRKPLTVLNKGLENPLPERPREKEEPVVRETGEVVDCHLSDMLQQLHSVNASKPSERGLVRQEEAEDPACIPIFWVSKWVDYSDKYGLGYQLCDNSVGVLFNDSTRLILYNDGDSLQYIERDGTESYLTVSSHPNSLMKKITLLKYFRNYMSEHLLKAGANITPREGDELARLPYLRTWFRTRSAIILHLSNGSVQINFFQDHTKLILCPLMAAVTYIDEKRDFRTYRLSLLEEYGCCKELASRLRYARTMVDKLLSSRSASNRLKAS
Sequence of UniProt O43353 (whole entry, looked up): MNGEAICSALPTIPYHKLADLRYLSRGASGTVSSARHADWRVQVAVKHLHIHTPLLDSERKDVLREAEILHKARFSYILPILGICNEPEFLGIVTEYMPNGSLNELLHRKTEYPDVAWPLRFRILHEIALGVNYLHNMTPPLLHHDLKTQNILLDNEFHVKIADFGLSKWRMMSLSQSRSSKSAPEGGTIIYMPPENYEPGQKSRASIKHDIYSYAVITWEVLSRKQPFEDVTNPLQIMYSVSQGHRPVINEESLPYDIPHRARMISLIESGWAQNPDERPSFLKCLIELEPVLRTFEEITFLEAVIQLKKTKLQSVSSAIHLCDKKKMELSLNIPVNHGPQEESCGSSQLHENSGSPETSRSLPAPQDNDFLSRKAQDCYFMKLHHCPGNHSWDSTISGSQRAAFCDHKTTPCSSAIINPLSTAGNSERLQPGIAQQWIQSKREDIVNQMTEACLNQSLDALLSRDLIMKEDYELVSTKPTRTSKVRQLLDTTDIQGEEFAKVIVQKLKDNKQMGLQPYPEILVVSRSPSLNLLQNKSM
Sequence of UniProt Q6XUX3 (whole entry, looked up): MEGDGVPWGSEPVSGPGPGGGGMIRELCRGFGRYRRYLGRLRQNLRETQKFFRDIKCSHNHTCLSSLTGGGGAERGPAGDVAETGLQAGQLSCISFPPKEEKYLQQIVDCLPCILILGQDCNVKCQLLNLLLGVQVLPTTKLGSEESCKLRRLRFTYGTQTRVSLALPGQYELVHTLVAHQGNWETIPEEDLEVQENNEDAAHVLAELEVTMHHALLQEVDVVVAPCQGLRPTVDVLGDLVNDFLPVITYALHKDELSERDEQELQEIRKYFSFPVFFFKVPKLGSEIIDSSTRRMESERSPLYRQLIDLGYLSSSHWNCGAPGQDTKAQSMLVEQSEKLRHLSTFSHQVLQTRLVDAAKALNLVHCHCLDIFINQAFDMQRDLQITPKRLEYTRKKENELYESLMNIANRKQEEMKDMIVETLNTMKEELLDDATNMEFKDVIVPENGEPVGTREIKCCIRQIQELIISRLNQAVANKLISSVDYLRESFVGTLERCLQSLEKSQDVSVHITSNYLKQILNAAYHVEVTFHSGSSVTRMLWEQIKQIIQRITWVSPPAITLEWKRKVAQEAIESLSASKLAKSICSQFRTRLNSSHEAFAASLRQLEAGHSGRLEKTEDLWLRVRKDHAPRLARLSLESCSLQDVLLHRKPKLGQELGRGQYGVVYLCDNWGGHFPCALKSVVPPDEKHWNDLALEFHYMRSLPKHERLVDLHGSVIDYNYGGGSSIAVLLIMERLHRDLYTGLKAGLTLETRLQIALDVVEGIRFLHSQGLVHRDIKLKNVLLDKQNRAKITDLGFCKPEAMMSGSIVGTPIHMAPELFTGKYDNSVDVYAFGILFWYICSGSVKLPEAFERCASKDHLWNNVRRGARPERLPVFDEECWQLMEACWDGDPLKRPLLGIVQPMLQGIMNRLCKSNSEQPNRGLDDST
Sequence of UniProt Q9Y4K4 (whole entry, looked up): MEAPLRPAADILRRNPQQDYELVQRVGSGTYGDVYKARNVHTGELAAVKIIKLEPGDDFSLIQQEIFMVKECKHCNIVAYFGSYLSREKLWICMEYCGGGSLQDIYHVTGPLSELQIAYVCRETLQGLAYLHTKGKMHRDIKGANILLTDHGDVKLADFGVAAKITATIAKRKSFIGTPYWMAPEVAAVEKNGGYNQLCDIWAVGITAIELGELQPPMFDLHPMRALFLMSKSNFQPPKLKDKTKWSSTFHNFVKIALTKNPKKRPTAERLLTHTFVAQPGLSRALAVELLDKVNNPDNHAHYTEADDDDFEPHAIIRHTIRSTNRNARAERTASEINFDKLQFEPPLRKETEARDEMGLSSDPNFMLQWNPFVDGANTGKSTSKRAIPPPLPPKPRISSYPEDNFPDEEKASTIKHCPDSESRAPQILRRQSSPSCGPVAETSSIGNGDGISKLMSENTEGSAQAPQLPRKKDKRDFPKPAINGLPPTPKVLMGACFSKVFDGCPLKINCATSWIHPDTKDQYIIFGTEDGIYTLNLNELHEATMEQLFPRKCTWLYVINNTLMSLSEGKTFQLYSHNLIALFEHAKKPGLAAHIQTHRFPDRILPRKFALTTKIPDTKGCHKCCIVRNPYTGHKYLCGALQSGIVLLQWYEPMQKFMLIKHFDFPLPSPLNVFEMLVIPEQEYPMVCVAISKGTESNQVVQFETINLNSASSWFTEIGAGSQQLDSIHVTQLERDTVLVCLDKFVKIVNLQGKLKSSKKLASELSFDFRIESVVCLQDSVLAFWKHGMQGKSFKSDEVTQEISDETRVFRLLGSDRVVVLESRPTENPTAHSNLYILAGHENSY
Sequence of UniProt P08631 (whole entry, looked up): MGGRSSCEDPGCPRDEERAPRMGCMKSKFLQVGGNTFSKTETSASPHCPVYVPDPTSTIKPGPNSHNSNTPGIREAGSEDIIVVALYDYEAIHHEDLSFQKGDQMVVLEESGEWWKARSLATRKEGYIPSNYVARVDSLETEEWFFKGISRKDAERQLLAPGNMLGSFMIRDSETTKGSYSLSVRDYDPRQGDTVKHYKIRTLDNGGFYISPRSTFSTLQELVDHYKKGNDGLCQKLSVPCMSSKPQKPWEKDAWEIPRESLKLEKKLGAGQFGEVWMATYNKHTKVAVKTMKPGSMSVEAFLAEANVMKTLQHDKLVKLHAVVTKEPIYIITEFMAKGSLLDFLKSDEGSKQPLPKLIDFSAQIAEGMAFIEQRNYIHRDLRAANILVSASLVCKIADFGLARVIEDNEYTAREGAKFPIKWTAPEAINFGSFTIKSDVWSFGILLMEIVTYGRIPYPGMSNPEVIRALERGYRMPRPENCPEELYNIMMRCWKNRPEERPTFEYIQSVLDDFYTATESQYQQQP

Series 1 — organism: Cryptosporidium parvum; technique: time-kill; cells: HCT-8; strain: nanoluciferase-expressing; reading: higher = more parasites; endpoint: parasite luminescence
Structure (SMILES): CNC(=O)c1ccc(-c2cnn3ccc(C(=O)N(C)c4ccc(Cl)c(C(=O)OC)c4)cc23)cc1
concentration = 0.00102 µM; time = 72 h; result = 161000 RLU and 234000 RLU
concentration = 0.00102 µM; time = 4 h; result = 82300 RLU and 90400 RLU
concentration = 2.222 µM; time = 8 h; result = 106000 RLU and 88500 RLU
concentration = 0.2469 µM; time = 72 h; result = 25800 RLU and 21300 RLU
concentration = 0.7407 µM; time = 48 h; result = 24900 RLU and 26700 RLU
concentration = 6.667 µM; time = 72 h; result = 18900 RLU and 18800 RLU

Series 2 — endpoint: clonogenic survival
SMILES: CO[C@@H]1[C@@H](OC(N)=O)[C@@H](O)[C@H](Oc2ccc3c(O)c(NC(=O)c4ccc(O)c(CC=C(C)C)c4)c(=O)oc3c2C)OC1(C)C
cell line = RPE-1 wild type; concentration = 10 µM; notes = unit not given; relative to = untreated; result = 1.05 and 1.14 and 0.887
cell line = CAPAN-1 BRCA2-mutant parental; concentration = 100 µM; result = 52.3% and 37.1%
cell line = RPE-1 BRCA1-/-; concentration = 25 µM; result = 62.5% and 45% and 78.8%
cell line = RPE-1 wild type; concentration = 50 µM; result = 67.9% and 88.4% and 69.6%
cell line = CAPAN-1 BRCA2-corrected; concentration = 50 µM; result = 75.4% and 88.4%
cell line = RPE-1 BRCA2-/-; concentration = 75 µM; notes = unit not given; relative to = untreated; result = 0.752 and 0.857
cell line = RPE-1 BRCA2-/-; concentration = 200 µM; notes = unit not given; relative to = untreated; result = 0 and 0.0325 and 0.0107

Series 3 — read-out: enzyme activity; mode: inhibitor; concentration: 0.5 µM; relative to: control; endpoint: remaining activity
Structure (SMILES): N/C(=N\[N+](=O)[O-])N/N=C\c1ccc(-c2cccc([N+](=O)[O-])c2)o1
target = MAP4K5 (Homo sapiens, UniProt Q9Y4K4); result = 109%
target = ULK1 (Homo sapiens, UniProt O75385); result = 93.8%
target = DSTYK (Homo sapiens, UniProt Q6XUX3); result = 95.4%
target = PLK1 (Homo sapiens, UniProt P53350); result = 98.6%
target = ACVR1 (Homo sapiens, UniProt Q04771); result = 98%
target = HCK (Homo sapiens, UniProt P08631); result = 114%
target = PHKG2 (Homo sapiens, UniProt P15735); result = 100%
target = RIPK2 (Homo sapiens, UniProt O43353); result = 106%

Series 4 — read-out: ligand displacement; concentration: 10 µM; endpoint: inhibition
Target: 5-hydroxytryptamine receptor 2C (HTR2C, Homo sapiens, UniProt P28335)
Sequence of UniProt P28335 (whole entry, looked up): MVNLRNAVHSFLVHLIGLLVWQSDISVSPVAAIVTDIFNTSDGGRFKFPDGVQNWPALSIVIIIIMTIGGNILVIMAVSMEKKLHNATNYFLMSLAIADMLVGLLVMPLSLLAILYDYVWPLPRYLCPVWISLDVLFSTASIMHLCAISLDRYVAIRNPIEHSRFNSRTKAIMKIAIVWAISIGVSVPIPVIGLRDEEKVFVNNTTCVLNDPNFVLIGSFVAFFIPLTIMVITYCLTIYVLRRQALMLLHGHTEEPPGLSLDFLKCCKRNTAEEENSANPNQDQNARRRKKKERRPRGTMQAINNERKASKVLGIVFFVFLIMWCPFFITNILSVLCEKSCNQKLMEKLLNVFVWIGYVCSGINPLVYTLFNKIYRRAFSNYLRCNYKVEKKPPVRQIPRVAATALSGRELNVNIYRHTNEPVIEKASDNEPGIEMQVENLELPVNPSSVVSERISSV
SMILES = CN(C)c1ncnc(-c2ccc3nc(Nc4cc(CN5CCN(C(=O)CC(F)(F)F)CC5)ccn4)[nH]c3c2)c1Cl; result = 0.02%
SMILES = CC1=C(C#N)C(c2ccc3[nH]nc(C)c3c2)C(C#N)=C(C)N1; result = 22.4%
SMILES = N#CN1CC[C@@H](C(=O)Nc2nc3c(s2)CN(C(=O)CN=[N+]=[N-])CC3)C1; result = 6.22%
SMILES = Cc1ccc(-c2cnc([C@@]3(O)CC[C@H](C(=O)O)C(C)(C)C3)s2)cc1Nc1cccc(C(F)(F)F)n1; result = 4.21%
SMILES = O=c1nc(-c2ccccn2)sc2ccccc12; result = 12.2%
SMILES = Cc1ncc(-c2cc(Cl)ccc2F)cc1-n1c(=O)n(CC(N)=O)c2ccccc21; result = 10.2%
SMILES = O=C(O)c1cc(-c2ccc(C3CCNCC3)cc2)c2ccc(-c3ccc(C(F)(F)F)cc3)cc2c1; result = 11.2%
SMILES = Cc1cc(C)c(-n2ccn3nc(-c4cccnc4)cc23)cc1NC(=O)c1cc(C#N)cc(S(F)(F)(F)(F)F)c1; result = 34.5%
SMILES = Cc1c(C(=O)O)cc(-c2ccc(C3CCNCC3)cc2)c2ccc(-c3ccc(C(F)(F)F)cc3)cc12; result = -4.53%
SMILES = O=C(Nc1ccc(Oc2ccc(F)cc2)cc1)N1CCc2ncccc2[C@H]1c1ccc(F)cc1; result = 68.4%
SMILES = CCCCN(CCCC)C(=O)CN1C[C@@H](c2cc(OC)c3c(c2)OCO3)[C@H](C(=O)O)[C@H]1CC(C)(C)CCC; result = 15.7%
SMILES = Nc1c(C(=O)NCc2ccc(C(=O)NCCCC3CCCCC3)cc2)cnn1-c1ccccc1; result = 10%
SMILES = Cc1c[nH]c2nccc(Oc3c(F)cc(Nc4cc(Cl)nc(N)n4)cc3F)c12; result = 22.1%
SMILES = CCc1ccccc1C(=O)Nc1n[nH]c2c(C)c(F)c(C3C(C#N)=C(C)N(C)C(C)=C3C#N)cc12; result = 20%
SMILES = CC(=O)Nc1ncc(CN2CCC[C@H](Cc3cc(C)nc(C)c3)C2)s1; result = 15.2%
SMILES = CC(=O)N1CCC(c2ccc(C(=O)NC(=N)N)cc2C(F)(F)F)CC1; result = 2.59%
SMILES = CO[C@@H](C)c1c(Nc2ccc([C@H](N(C)C(=O)C3CCS(=O)(=O)CC3)C(F)(F)F)cc2)cnc2cc(Cl)nn12; result = -4.22%
SMILES = O=S(=O)(NC1CCC(c2cc(F)ccc2F)(S(=O)(=O)c2ccc(Cl)cc2)CC1)C(F)(F)F (centres unmarked); result = 12.3%
SMILES = CC(C)CC(=O)N1CCc2nc(-c3ccc(Br)cc3)nc(N(C)Cc3ccccc3)c2C1; result = -6.28%
SMILES = O=C(NCc1ncc(C(F)(F)F)cc1Cl)c1ccc2c(c1)C1(CCS(=O)(=O)CC1)[C@H](C1CC1)N2S(=O)(=O)c1ccc(F)cc1; result = 9.65%
SMILES = CN(C)CC#Cc1ccc(OCCCc2sc(N3CCc4cccc(C(=O)Nc5nc6ccccc6s5)c4C3)nc2C(=O)O)c(F)c1; result = 1.97%
SMILES = COc1cccc(CNC(=O)c2nc3scc(COCc4ccc(C(=O)O)cc4)c3c(=O)[nH]2)c1; result = 12.5%
SMILES = Cc1c(N2CCNCC2)nc2ccc(Br)cc2c1C(=O)NC[C@H](CCC(=O)O)c1ccccc1Cl; result = 12.7%
SMILES = CN(C)C(=O)Cn1cc(-c2nc(C3(c4ccc(-c5cnc(N)nc5)cc4)CC3)no2)cn1; result = 9.74%
SMILES = N#Cc1ccc(Nc2ccc3[nH]c(=O)[nH]c3c2)c(Cl)c1; result = -9.96%

Series 5 — read-out: enzyme activity; mode: inhibitor; concentration: 10 µM; endpoint: inhibition
Target: Calcium/calmodulin-dependent protein kinase type II subunit alpha (CAMK2A, Homo sapiens, UniProt Q9UQM7)
Sequence of UniProt Q9UQM7 (whole entry, looked up): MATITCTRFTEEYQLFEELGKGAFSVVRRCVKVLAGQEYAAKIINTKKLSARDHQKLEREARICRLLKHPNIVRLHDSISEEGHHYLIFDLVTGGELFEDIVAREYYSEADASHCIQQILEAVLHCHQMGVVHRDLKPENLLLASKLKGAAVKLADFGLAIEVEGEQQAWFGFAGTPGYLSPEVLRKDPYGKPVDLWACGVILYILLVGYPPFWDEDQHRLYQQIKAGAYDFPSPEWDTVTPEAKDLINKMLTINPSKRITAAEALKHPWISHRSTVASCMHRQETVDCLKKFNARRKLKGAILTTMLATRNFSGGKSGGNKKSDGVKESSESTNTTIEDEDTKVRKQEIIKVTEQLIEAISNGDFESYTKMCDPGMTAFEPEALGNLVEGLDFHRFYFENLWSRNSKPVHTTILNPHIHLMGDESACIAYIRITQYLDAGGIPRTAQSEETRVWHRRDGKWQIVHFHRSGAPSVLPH
SMILES = C/C=C(\C)C(=O)O[C@@H]1[C@@H](OC(C)=O)[C@]2(C)[C@H](C(C)=O)CC[C@@]23O[C@]32CC[C@H]3C[C@@H](O[C@H]4C[C@@H](OC)[C@H](O[C@@H]5O[C@H](C)[C@@H](O)[C@@H](OC)[C@H]5O)[C@@H](C)O4)CC[C@]3(C)[C@@H]12; result = 7%
SMILES = O=C(O)c1ccc(=O)[nH]c1; result = -15%
SMILES = COC1=CC(=O)O[C@@H](/C=C/c2ccc3c(c2)OCO3)C1; result = 21%
SMILES = CC(=O)OC(C)(C)/C=C/C(=O)[C@](C)(O)[C@H]1[C@H](O)C[C@@]2(C)[C@@H]3CC=C4[C@@H](C=C(O)C(=O)C4(C)C)[C@]3(C)C(=O)C[C@]12C; result = -25%

Repeated from above (series 5):
SMILES = CC(=O)OC(C)(C)/C=C/C(=O)[C@](C)(O)[C@H]1[C@H](O)C[C@@]2(C)[C@@H]3CC=C4[C@@H](C=C(O)C(=O)C4(C)C)[C@]3(C)C(=O)C[C@]12C; result = -25%
SMILES = O=C(O)c1ccc(=O)[nH]c1; result = -15%
SMILES = COC1=CC(=O)O[C@@H](/C=C/c2ccc3c(c2)OCO3)C1; result = 21%
SMILES = C/C=C(\C)C(=O)O[C@@H]1[C@@H](OC(C)=O)[C@]2(C)[C@H](C(C)=O)CC[C@@]23O[C@]32CC[C@H]3C[C@@H](O[C@H]4C[C@@H](OC)[C@H](O[C@@H]5O[C@H](C)[C@@H](O)[C@@H](OC)[C@H]5O)[C@@H](C)O4)CC[C@]3(C)[C@@H]12; result = 7%
